# Experimental data collected from several papers.
# Parts stem from different laboratories: compare values within a part only.

# Series 1
# Target: Hepatocyte nuclear factor 3-alpha (Foxa1, Mus musculus, UniProt P35582, residues 1-468, full length assumed)
# UniProt P35582, sequence (whole entry, looked up): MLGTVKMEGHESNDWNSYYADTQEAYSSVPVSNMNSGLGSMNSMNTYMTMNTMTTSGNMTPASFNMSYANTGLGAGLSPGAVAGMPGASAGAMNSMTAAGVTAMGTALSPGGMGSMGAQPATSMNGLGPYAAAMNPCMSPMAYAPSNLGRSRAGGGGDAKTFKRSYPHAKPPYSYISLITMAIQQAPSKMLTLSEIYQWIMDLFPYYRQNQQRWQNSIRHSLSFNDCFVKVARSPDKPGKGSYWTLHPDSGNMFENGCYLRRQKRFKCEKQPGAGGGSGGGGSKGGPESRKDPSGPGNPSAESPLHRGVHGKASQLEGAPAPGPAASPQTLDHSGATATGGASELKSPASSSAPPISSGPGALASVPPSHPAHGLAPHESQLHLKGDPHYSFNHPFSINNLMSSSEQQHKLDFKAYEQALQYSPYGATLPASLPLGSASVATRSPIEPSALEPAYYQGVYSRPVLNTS
# Technique: EMSA with sequencing
# Molecule type: double-stranded DNA, one strand shown
# Matrix: in vitro
# Concentration: 10 and 20 nM
# Setting: whole designed probe, mean of two concentrations, ends assumed
# Baseline: negative control set to 0
# Direction: higher = stronger binding
# All sequences stand within: GTGAGCGGTGCCCATTGATGGGGAAC … TTTCACTGGGATCGTGGGGAC
Oligonucleotide,normalised bound fraction
TAATAAGTAGTAATGCAATTATATTCTAAAATTCAAATGAAAATGTCTATTACTTTATACAACTATACATCTTTAAACACGAGCAATCTACAAAGTAATCTCGGAATCTAAACTTACTGATGTATTCACCAAAATTACCTCTCCCTGATATATTATTCTATACATTATAAATGCCTGAGAATTGACACTTTTA,-0.0591 ratio
CAAATGCTATAAAGCCAAGGCGCCCAAGCACCAGGATCCAGGGGCTGGGGTGGCAGCATGCCAGCGCCCTGAGGGCAGTGACAGCTTGCATGTGTGTTTACATACTGTTTGCAAATAAAGAGTAAGTGGGCAGATCCCTGAGCCCTCGTCACTTCCCACCATCCCTGGGGACCCACTGCCTAGTTCAGCTTCC,0.426 ratio
CATTTTAAATACACATTTCTGAAAGAGTTCTTAATGCTTGCATACTGACTTTTGTCATAGAGTTTATACTCTTGGGTTCTTATTTGTTTGCATGTTTACATATAATTTCAAAATAAGTGCTAAATAAATTGTCCTTGATAATAGCCTATGTGCTTACATAGAAATACTAATTGTAAAATATCTGTAGCAATAA,0.379 ratio
CACTAGCCAAGCAAATGCTACCTTTCCTAAATTACGCCGTGGTATTGTGTACGACAGCAGCAGGGTTGCTATTTTAAAATGGGATTGCGTAAAATAAACATGTGCCCAGATGCTAAGTTGACAGGAAGTAATGATTAATTGATGCTCTGGTACGGCCTCGTGCTTTCCAGTGCTTCCATTTGTGTGACGATCC,0.246 ratio
CACGTGCACAAACCCATATGCCTTACAGAGTCAAGGGCTGTGATGAGGGTCCCCACCCTTGCACACTTCTCTGTCCTCTGTCTGGGCTCAGAGTAATCTGGGGGTCACCTGGAATCCAGGTCTAAGCTGGGCTTGGAGGTGTCCTAATGAAGCAGGATGCTGACATGCACTTCCCCAGGTCAGCTGGGGCTGT,-0.0851 ratio
TGCTTTGGTGACATATGTGGGCTTCATCATCTACATGTAGCCCACCTAACTCCATCTTTACACATCTGTGTACCCATCTCTGGAGTTTTGTTCATGTTTACTTTGAACTGTTTTTCTGTGTTACTGAATTCCCTGCATCCTTCAGGAACAAACTTATATCCATGTTCACCATAAAATGTCTCCTGATAACTCC,0.383 ratio
ATCTTCCCCCTCTTCCTTGCCCCACCAGCTCACCTTCCCGGGTATATTGGAGATAGGAAATTAATATAAGCCGGCATTCGTTAACCCTCTTCTGGCGCAAACTGCACATTGGTCTGGATCTAACATGGTCCTTTGGCGACGCCAGGCTCCGGGAGAGCAAAGCACCGTGTCAGGGCCATGATCCGGGGTGGCC,0.0275 ratio
CTTCAAAGTAGCTCCCATATGGACTGAATATAGGATACGAGCCTCTGCCTAGCCTTCAGTCCTTTTTGTTTGGTTTAGGTGTTGGTTGTCTTTGTAAACACTGGAAGCTGCTGAGTCATCTCCCTCGGCTTTTTCCATCACACTTTACCCCACATACATTCATACACACTTGGCTCAAGCTTTTCGGTTCTTT,0.345 ratio

# Series 2
# Host: mouse
# Matrix: microsomes or S9
# Concentration: 2 µM
# Time: 0.5 h
Compound,remaining compound [%]
Cc1cccc2c1ccn2CC(=O)N1CCNC(=O)C1,75.2
CCOC(=O)COc1ccc(-c2noc(-c3ccc(OCc4ccc(Br)cc4)cc3)c3cccc2-3)cc1,96.7
COc1ccc(NC(=O)c2cc3c(=O)n4cc(C)ccc4nc3n2Cc2ccccc2)c(OC)c1,78
Oc1ccc([C@H]2Oc3cc(O)cc(O)c3C[C@H]2O)cc1,83.8
N#Cc1ncc(Br)cc1NC(=O)C(F)(F)F,> 99
Cn1c(=O)[nH]c(=O)c2c1nc(NC1CCCCC1)n2CC(=O)NC1CCCCC1,1.66

# Series 3
# Target: Calcium/calmodulin-dependent protein kinase type II subunit alpha (CAMK2A, Homo sapiens, UniProt Q9UQM7)
# UniProt Q9UQM7, sequence (whole entry, looked up): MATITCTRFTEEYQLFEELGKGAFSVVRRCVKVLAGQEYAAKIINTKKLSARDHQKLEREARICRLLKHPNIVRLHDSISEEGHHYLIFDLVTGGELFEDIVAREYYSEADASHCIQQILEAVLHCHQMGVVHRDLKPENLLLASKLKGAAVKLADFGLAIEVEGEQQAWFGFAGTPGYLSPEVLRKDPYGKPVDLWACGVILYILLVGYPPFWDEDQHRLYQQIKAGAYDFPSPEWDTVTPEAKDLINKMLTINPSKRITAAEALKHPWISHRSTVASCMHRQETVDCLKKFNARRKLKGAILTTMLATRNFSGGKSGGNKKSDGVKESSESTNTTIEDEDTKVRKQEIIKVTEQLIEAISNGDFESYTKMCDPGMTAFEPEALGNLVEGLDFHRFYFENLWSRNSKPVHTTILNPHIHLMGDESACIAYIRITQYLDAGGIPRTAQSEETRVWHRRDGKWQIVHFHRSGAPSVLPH
# Read-out: enzyme activity
# Mode: inhibitor
# Concentration: 0.5 µM
# Baseline: control
SMILES,remaining activity [%]
O=C1NC(=O)C(c2c[nH]c3ccccc23)=C1c1c[nH]c2ccccc12,85.3
CCc1[nH]c(-c2ccc(OC)cc2)nc1-c1ccncc1,105
CCCC(=O)Oc1ccc2[nH]c(C(=O)c3cc4ccccc4[nH]3)cc2c1,87
Cc1ccc(NC2=CC(=O)c3sc(C)nc3C2=O)cc1,101
Cc1cc(Nc2nc(-c3ccccc3)nc3ccccc23)n[nH]1,108
Fc1ccc(-c2nc3n(c2-c2ccncc2)CCS3)cc1,106
Oc1ccc(Nc2nc(-c3ccc(Cl)cc3)cs2)cc1,106
O=S(=O)(NCCNC/C=C/c1ccc(Br)cc1)c1cccc2cnccc12,102
NC(=O)c1ccc(N(C(N)=O)c2c(F)cccc2F)nc1-c1ccc(F)cc1F,90.9
COc1ccc(S(=O)(=O)N(CCO)c2ccccc2CN(C)CC=Cc2ccc(Cl)cc2)cc1,107
CSc1nc(-c2ccnc(N[C@@H](C)c3ccccc3)c2)c(-c2ccc(F)cc2)[nH]1 (racemic),96.5
N#CC(=C(N)Sc1ccc(N)cc1)c1ccccc1C(F)(F)F,111

# Series 4
# Target: Beta-1 adrenergic receptor (ADRB1, Homo sapiens, UniProt P08588)
# UniProt P08588, sequence (whole entry, looked up): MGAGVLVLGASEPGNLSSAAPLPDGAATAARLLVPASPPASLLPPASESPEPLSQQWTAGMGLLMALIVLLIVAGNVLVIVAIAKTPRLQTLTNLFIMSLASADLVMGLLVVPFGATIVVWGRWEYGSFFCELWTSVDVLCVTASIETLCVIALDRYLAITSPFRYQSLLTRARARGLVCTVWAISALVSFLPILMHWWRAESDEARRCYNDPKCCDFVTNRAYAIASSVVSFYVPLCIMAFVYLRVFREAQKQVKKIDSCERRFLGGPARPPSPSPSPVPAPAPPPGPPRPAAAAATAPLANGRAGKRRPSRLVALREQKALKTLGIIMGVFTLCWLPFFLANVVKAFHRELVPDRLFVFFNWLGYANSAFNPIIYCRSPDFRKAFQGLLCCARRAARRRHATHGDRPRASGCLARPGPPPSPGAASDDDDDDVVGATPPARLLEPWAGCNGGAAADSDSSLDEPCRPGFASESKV
# Read-out: binding
# Technique: radioligand binding
# Concentration: 10 µM
Structure (SMILES),inhibition
CNC(=O)Nc1ccc2c(c1)[C@]1(CC2)OC(=O)N(CC(=O)N(Cc2ccc(F)cc2)[C@@H](C)C(F)(F)F)C1=O,-4.4%
CCOC(=O)c1cc2cc(-c3cc(C(=O)NCc4ccc(C(=O)O)cc4)nn3C)ccc2[nH]1,-5.04%
O=C(Nc1cccnn1)N1CC(CC=Cc2cncc(Oc3ccc(C(F)(F)F)cn3)n2)C1,1.97%
Cc1nc(Cc2cccc(C(F)(F)F)c2)sc1-c1ccc(C(N)=O)nc1,7.56%
O=C(O)c1cc(-c2ccc(C3CCNCC3)cc2)c2ccc(-c3ccc(C(F)(F)F)cc3)cc2c1,24.7%
CNC(=O)c1ccc(Nc2ncc(C(F)(F)F)c(NCc3nccnc3N(C)S(C)(=O)=O)n2)cc1,-0.83%
Cc1cc(-n2nc(Cc3cc(F)cc(C(F)(F)F)c3)nc2C)ccc1C(N)=O,11.8%
Cc1cc(C)c(-n2ccn3nc(-c4cccnc4)cc23)cc1NC(=O)c1cc(C#N)cc(S(F)(F)(F)(F)F)c1,9.41%
COCc1nc2cnc3cc(-c4c(C)noc4C)c(OC[C@H]4CCNC4)cc3c2n1[C@H](C)c1ccccc1,4.82%
COCCc1ccc(-c2c(C)nc3c(N4CCOCC4)ccnn23)cn1,3.43%
CC(=O)Nc1c(F)cc(C(=O)N[C@H]2CC[C@H](O)CC2)cc1O[C@@H](C)c1ccccc1,-6.85%

# Some of these lines once more (series 1):
Oligonucleotide,normalised bound fraction
TGCTTTGGTGACATATGTGGGCTTCATCATCTACATGTAGCCCACCTAACTCCATCTTTACACATCTGTGTACCCATCTCTGGAGTTTTGTTCATGTTTACTTTGAACTGTTTTTCTGTGTTACTGAATTCCCTGCATCCTTCAGGAACAAACTTATATCCATGTTCACCATAAAATGTCTCCTGATAACTCC,0.383 ratio
CAAATGCTATAAAGCCAAGGCGCCCAAGCACCAGGATCCAGGGGCTGGGGTGGCAGCATGCCAGCGCCCTGAGGGCAGTGACAGCTTGCATGTGTGTTTACATACTGTTTGCAAATAAAGAGTAAGTGGGCAGATCCCTGAGCCCTCGTCACTTCCCACCATCCCTGGGGACCCACTGCCTAGTTCAGCTTCC,0.426 ratio
CATTTTAAATACACATTTCTGAAAGAGTTCTTAATGCTTGCATACTGACTTTTGTCATAGAGTTTATACTCTTGGGTTCTTATTTGTTTGCATGTTTACATATAATTTCAAAATAAGTGCTAAATAAATTGTCCTTGATAATAGCCTATGTGCTTACATAGAAATACTAATTGTAAAATATCTGTAGCAATAA,0.379 ratio
